Measurements pooled from the literature.
Each numbered part is a random draw from the data of one study; scales do not carry over between parts.
Sequence of UniProt Q9Y243 (whole entry, looked up): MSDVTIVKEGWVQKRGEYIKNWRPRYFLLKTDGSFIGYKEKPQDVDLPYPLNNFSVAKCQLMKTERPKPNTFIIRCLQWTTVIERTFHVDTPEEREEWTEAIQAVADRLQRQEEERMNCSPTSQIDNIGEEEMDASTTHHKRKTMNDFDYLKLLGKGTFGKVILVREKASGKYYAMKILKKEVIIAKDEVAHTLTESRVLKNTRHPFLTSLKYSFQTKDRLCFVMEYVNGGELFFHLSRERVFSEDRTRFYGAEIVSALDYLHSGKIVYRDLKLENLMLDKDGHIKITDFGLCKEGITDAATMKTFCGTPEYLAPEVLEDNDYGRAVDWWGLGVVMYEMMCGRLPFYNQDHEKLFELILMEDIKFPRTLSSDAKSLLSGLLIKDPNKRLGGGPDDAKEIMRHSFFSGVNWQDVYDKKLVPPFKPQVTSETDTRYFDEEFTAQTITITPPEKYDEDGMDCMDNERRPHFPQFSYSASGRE
Sequence of UniProt P46734 (whole entry, looked up): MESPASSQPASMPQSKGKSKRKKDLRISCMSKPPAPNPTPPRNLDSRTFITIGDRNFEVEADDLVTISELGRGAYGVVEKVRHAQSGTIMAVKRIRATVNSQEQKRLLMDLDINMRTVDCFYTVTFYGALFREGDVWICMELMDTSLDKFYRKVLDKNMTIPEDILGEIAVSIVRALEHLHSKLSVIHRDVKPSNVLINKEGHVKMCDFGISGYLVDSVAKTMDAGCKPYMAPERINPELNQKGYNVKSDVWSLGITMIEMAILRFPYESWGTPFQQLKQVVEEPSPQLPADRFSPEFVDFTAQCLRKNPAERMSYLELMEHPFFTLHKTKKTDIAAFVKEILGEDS
Sequence of UniProt Q00536 (whole entry, looked up): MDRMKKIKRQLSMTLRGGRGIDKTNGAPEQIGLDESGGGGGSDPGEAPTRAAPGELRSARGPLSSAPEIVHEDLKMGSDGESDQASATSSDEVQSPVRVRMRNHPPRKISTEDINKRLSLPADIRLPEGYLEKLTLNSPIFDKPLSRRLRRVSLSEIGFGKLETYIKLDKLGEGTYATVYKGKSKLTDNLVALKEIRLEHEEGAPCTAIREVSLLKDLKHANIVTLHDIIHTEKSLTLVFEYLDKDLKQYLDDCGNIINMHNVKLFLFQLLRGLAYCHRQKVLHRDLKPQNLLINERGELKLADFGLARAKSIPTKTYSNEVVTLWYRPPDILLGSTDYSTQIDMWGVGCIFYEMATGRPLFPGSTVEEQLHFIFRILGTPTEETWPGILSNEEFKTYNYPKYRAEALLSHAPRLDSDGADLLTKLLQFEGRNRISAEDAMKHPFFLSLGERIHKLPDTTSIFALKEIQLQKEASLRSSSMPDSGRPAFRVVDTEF
Sequence of UniProt Q7KZI7 (whole entry, looked up): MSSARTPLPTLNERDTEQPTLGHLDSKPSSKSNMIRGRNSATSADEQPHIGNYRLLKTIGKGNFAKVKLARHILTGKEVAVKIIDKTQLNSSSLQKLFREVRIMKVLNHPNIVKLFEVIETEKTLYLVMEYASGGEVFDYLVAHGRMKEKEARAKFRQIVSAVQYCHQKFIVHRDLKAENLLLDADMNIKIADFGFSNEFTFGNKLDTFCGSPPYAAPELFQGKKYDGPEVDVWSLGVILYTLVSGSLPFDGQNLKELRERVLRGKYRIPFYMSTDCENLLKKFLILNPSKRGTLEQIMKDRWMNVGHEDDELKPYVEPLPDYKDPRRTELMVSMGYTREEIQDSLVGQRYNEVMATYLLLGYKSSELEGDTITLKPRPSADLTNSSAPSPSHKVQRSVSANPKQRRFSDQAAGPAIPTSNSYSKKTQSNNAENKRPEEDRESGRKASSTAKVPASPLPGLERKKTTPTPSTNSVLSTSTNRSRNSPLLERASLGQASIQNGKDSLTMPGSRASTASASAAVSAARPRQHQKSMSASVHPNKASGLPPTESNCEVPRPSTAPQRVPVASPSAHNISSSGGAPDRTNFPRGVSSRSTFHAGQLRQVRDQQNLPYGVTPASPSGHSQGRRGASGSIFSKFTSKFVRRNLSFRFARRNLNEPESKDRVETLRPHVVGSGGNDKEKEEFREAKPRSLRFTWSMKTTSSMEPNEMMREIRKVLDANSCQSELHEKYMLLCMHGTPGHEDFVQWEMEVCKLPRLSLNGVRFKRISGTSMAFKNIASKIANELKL
Sequence of UniProt Q9BZL6 (whole entry, looked up): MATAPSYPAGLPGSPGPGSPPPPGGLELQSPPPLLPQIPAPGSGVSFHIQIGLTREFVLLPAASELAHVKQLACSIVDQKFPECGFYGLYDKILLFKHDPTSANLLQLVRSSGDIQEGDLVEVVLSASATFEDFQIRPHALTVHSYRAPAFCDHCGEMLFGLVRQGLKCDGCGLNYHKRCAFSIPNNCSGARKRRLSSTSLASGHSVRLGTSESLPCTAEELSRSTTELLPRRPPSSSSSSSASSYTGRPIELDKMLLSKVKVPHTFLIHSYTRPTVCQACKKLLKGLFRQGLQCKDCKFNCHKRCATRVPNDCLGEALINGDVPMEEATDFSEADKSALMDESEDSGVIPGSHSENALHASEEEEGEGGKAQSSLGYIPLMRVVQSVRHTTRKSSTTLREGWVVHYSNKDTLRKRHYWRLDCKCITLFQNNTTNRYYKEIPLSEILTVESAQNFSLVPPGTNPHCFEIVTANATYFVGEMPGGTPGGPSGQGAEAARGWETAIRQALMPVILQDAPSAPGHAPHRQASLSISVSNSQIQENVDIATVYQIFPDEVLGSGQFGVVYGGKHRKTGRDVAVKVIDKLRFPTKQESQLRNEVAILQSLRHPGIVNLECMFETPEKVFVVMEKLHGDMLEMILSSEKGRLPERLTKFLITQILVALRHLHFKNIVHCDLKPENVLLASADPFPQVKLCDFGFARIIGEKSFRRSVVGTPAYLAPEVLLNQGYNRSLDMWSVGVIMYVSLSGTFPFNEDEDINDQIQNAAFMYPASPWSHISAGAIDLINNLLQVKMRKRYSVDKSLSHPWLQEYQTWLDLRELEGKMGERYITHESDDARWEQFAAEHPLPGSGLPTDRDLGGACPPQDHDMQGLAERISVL
Sequence of UniProt O00506 (whole entry, looked up): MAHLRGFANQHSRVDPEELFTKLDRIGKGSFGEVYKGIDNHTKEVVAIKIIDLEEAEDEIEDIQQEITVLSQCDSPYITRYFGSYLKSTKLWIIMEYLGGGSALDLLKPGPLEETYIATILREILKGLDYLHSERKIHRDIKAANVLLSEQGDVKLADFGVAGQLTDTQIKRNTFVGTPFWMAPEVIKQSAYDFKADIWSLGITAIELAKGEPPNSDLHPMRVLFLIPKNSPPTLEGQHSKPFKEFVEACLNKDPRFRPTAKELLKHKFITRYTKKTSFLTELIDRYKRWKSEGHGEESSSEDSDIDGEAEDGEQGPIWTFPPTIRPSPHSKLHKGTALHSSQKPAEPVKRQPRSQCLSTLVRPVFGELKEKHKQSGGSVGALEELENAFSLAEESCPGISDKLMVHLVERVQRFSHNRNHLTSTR

Sample 1
SMILES: CCOCCn1cc(C(=O)Nc2ccc(-n3nc(-c4cccnc4)cc3C(F)(F)F)cn2)ccc1=O
Effect on: cell-free assay
Technique: competition with immobilised ligand
Concentration: 1 µM
| target | remaining binding [%] |
| --- | --- |
| MAPK7 (Homo sapiens, UniProt Q13164) | 86 |
| STK25 (Homo sapiens, UniProt O00506) | 95 |
| SIK3 (Homo sapiens, UniProt Q9Y2K2) | 92 |
| MARK2 (Homo sapiens, UniProt Q7KZI7) | 100 |
| MTOR (Homo sapiens, UniProt P42345) | 100 |
| CDK16 (Homo sapiens, UniProt Q00536) | 98 |
| PIM3 (Homo sapiens, UniProt Q86V86) | 90 |
| TLK1 (Homo sapiens, UniProt Q9UKI8) | 100 |
| PHKG2 (Homo sapiens, UniProt P15735) | 100 |
| MAPK15 (Homo sapiens, UniProt Q8TD08) | 100 |
| MAP2K3 (Homo sapiens, UniProt P46734) | 83 |
| NUAK2 (Homo sapiens, UniProt Q9H093) | 73 |
| PRKD2 (Homo sapiens, UniProt Q9BZL6) | 100 |
| AKT3 (Homo sapiens, UniProt Q9Y243) | 100 |
| ERBB2 (Homo sapiens, UniProt P04626) | 100 |

Sample 2
Cell line: HaCaT
Concentration: 100 µM
Time: 36 h
| SMILES | viability [%] |
| --- | --- |
| COc1cnc(NS(=O)(=O)c2ccc(N)cc2)nc1 | 77.5 |
| O=C(O)[C@H](O)[C@@H](O)[C@H](O)[C@H](O)CO | 83.9 |
| CC(=O)NCCCS(=O)(=O)O | 82.2 |
| Cc1nnc(NS(=O)(=O)c2ccc(N)cc2)s1 | 81.8 |
| NC[C@H]1O[C@H](O[C@H]2[C@H](O)[C@@H](O[C@H]3O[C@H](CO)[C@@H](O)[C@H](N)[C@H]3O)[C@H](N)C[C@@H]2N)[C@H](O)[C@@H](O)[C@@H]1O | 97.1 |
| OC[C@H]1O[C@@H](Oc2ccc(O)cc2)[C@H](O)[C@@H](O)[C@@H]1O | 110 |
| Clc1ccc(C(Cn2ccnc2)OCc2c(Cl)cccc2Cl)c(Cl)c1 (stereo not drawn) | 64.6 |

Sample 3
SMILES: CC(C)n1cnc(-c2ccc(F)cc2)c1-c1ncc(C(=O)Nc2ccc(N3CCN(C)CC3)cc2)[nH]1
Technique: phase 2a trial
Host: idiopathic pulmonary fibrosis patients
| dose | setting | patients with ALT increased |
| --- | --- | --- |
| dose not given | adverse event grade 4, all dose arms pooled | 0% |
| dose not given | grade 3, arms pooled | 1% |
| 60 mg once daily | adverse event grade 3 | 0% |
| 60 mg once daily | adverse event grade 5 | 0% |

Sample 4
Host: human
Medium: microsomes or S9
Concentration: 2 µM
Time: 0.5 h
| Structure (SMILES) | remaining compound |
| --- | --- |
| Cn1c(=O)c2c(n(C)c1=O)n(CC(=O)NC(C)(C)C)c(=O)n2C | 41.5% |
| CN(C(=O)CN1CC[C@@H]2OCc3cnnn3[C@H]2C1)c1ccccc1 | > 100% |
| O=C(Nc1nc2ncc(Br)nc2s1)c1ccc(Cl)cc1 | 20.5% |
| O=C1CC(c2ccsc2)c2ccc3ccccc3c2N1 (stereo not drawn) | 19.6% |
| Cc1ccccc1Cc1c(C)nc2c(C(=O)N3CCc4c(c(-c5nncn5C)nn4C)C3)cnn2c1C | 32% |
| Cc1c(C(=O)N2c3ccccc3CC2C)sc2nc(-c3ccccc3)cn12 (stereo not drawn) | 89.5% |

Mixed results
| SMILES | target | effect on | action | technique | quantity | result |
| --- | --- | --- | --- | --- | --- | --- |
| CCN(CC)CCCCN1c2ccccc2Oc2ccc(Cl)cc21 | RAC-gamma serine/threonine-protein kinase (AKT3, Homo sapiens, UniProt Q9Y243) | enzyme activity | inhibitor | radiometric | IC50 | > 30 µM |

For quick reference, copied from above (sample 1):
| target | remaining binding [%] |
| --- | --- |
| MTOR (Homo sapiens, UniProt P42345) | 100 |
| MARK2 (Homo sapiens, UniProt Q7KZI7) | 100 |
| MAP2K3 (Homo sapiens, UniProt P46734) | 83 |
| AKT3 (Homo sapiens, UniProt Q9Y243) | 100 |
| MAPK7 (Homo sapiens, UniProt Q13164) | 86 |
